Published values collected from several papers.
Lines come from different studies, so protocols differ. Values joined by “and” are separate records of one study, mostly repeats; a detail may differ.
Organism: Pseudomonas aeruginosa

With CN(C)S(=O)(=O)c1ccc(S(=O)(=O)N2CCC(n3c(=O)[nH]c4ccccc43)CC2)cc1 the bacterial load was 4.84 log CFU/larva and 5.37 log CFU/larva and 4.4 log CFU/larva and 4.25 log CFU/larva and 3.58 log CFU/larva (CIP 27853 wild type, Bombyx eri larvae; 2.78 µg/larva).
For CCCC(=O)C#Cc1ccc(F)c(F)c1, “activity vs control” read 97% (microbial growth, absorbance; 10 µM, 24 h).
The MBC of COc1c(C)c(OS(=O)(=O)c2ccccc2)c(C)c(OS(=O)(=O)c2ccccc2)c1C(=O)/C=C/c1ccccc1 is reported as over 5000 µg/mL (microbial killing, broth dilution; ATCC27853).
CC(CCCOC(=O)CCC[N+](C)(C)C)C1CCC2C3CCC4CC(OC(=O)CCC[N+](C)(C)C)CCC4(C)C3CC(OC(=O)CCC[N+](C)(C)C)C12C (stereo not drawn) gave an inhibition zone of 10 mm (microbial growth, disc diffusion; ATCC27853; 250 µg/disc, 24 h).
With O=c1cccccc1O the MIC80 was over 71.4 µM (microbial growth, broth dilution; ATCC27853).
CCCCCCCCCC(=O)CC(=O)Nc1cccc(OC)c1 gave an elastase production of 42.4% (elastin-Congo red; PAO1 wild type; 100 µM, 20 h; baseline: DMSO).
The MBC of CCCCCCCCCCCC(=O)Oc1c(C)c(OC)c2c(/C=C/c3ccccc3)c(CCCCCCCCCC)c(=O)oc2c1C is reported as over 5000 µg/mL (microbial killing, broth dilution; ATCC27853).
CC(CCCOC(=O)CCC[N+](C)(C)C)C1CCC2C3CCC4CC(OC(=O)CCC[N+](C)(C)C)CCC4(C)C3CCC12C (stereo not drawn) has an inhibition zone of 7 mm (microbial growth, disc diffusion; ATCC27853; 15.6 µg/disc, 24 h).
COc1c(C)c(OC(=O)c2ccccc2)c(C)c(OC(=O)c2ccccc2)c1C(=O)/C=C/c1ccccc1 has an MBC of over 5000 µg/mL (microbial killing, broth dilution; ATCC27853).
The elastase production of CCCCCCCCCCCCn1nnc(CC(=O)O)n1 is reported as 55.6% (elastin-Congo red; PAO1 wild type; 100 µM, 20 h).
CC(C)c1ccc2c(c1)CCC1C(C)(CN(CC(O)C[N+](C)(C)C)CC(O)C[N+](C)(C)C)CCCC21C (stereo not drawn) has an inhibition zone of 9 mm (microbial growth, disc diffusion; ATCC27853; 125 µg/disc, 24 h).
For CCCCCCCCCC(=O)CC(=O)Nc1ccccc1, the elastase production was 68% (elastin-Congo red; PAO1 wild type; 100 µM, 20 h; baseline: DMSO).
With COc1c(C)c(OS(=O)(=O)c2ccccc2)c(C)c2c1C(=O)CC(c1ccccc1)O2 (stereo not drawn) the MBC was over 5000 µg/mL (microbial killing, broth dilution; ATCC27853).
For O=C(NCc1cc(Br)cc(Br)c1OC(=O)c1ccccc1[N+](=O)[O-])c1ccccc1Cl, the elastase production was 126% (elastin-Congo red; PAO1 wild type; 100 µM, 20 h; baseline: DMSO).
CC[C@H](C)CCCCC(=O)N[C@@H](CCN)C(=O)N[C@H](C(=O)N[C@@H](CCN)C(=O)N[C@H]1CCNC(=O)[C@H]([C@@H](C)O)NC(=O)[C@H](CCN)NC(=O)[C@H](CCN)NC(=O)[C@H](CC(C)C)NC(=O)[C@@H](CC(C)C)NC(=O)[C@H](CCN)NC1=O)[C@@H](C)O has a bacterial count of 7.9 log CFU and 7.68 log CFU (PAO1; 0 min).
